Results of several laboratories.
Numbered parts are unrelated; each lists some results of a single study. Positions count from the first letter of the parent shown.

Study 1
Target: tungstate, free oxyanion
Method: microfluidic competitive inhibition
Matrix: in vitro, cell-free expressed
Tested at: not given
Setting: derived from inhibition constants, unchanged parent 2230 nM
Reading: lower = stronger binding
Starting sequence: PafA, mature enzyme, eGFP fusion (Elizabethkingia meningoseptica, UniProt Q9KJX5); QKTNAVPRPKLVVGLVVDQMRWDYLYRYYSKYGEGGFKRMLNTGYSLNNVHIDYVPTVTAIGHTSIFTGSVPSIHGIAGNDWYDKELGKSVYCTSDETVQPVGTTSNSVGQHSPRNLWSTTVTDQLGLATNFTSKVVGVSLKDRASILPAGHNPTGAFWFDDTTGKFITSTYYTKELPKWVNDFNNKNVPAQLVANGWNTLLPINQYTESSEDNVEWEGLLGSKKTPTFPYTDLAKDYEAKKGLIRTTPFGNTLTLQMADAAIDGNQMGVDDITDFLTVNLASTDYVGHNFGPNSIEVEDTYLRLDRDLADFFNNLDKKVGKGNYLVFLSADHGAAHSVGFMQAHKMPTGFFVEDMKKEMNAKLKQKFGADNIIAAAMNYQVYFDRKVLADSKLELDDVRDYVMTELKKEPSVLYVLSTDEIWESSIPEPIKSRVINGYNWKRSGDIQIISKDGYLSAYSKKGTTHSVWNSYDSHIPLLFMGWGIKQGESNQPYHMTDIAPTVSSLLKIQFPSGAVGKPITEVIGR
Variant | oxyanion analog dissociation constant
T226G | 2.31 µM
S73G | 1.46 µM
G525A | 1.96 µM
W483G | 2.47 µM

Study 2
Target: UDP-N-acetylglucosamine--peptide N-acetylglucosaminyltransferase 110 kDa subunit (OGT, Homo sapiens, UniProt O15294)
Observed: binding
Method: phage display NGS
Form: peptide
Setting: panning round 2
Baseline: input library
Construct (O15294 1-1046): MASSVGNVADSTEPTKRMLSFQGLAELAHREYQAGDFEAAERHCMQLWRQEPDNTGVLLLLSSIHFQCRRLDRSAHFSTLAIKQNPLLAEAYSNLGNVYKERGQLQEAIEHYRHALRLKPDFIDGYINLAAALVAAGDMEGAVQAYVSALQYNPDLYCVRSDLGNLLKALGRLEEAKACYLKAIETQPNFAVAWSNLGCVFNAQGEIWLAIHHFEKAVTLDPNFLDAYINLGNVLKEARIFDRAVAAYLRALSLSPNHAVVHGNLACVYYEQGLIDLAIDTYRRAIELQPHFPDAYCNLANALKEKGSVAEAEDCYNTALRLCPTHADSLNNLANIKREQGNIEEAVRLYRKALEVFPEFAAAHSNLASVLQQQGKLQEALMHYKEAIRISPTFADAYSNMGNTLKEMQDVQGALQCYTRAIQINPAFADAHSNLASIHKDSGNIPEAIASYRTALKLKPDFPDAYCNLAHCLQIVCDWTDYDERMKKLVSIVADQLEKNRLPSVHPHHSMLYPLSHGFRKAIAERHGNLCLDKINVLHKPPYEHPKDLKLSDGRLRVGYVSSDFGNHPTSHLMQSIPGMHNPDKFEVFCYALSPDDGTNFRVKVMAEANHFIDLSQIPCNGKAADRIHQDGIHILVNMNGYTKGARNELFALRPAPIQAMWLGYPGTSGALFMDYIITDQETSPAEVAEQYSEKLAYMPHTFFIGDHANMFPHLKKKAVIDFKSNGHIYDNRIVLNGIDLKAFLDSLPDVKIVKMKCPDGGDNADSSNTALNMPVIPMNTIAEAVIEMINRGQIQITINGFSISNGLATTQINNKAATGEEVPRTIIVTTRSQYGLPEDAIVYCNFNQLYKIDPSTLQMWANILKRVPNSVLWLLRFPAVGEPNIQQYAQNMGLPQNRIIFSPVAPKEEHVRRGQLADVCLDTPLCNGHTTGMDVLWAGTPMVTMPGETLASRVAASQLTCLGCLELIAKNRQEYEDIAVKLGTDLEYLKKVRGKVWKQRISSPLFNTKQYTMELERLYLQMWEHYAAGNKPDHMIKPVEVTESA
Molecule | minimum log2 enrichment ratio
HPWPYIMEHEHHHYK | 2.84
FSFKPVYEIVLEQK | 3.88
SMLSHYHEVMRHHRV | 2.25

Study 3
Target: CCNE2, cyclin fold, Cln2 fusion (human)
Method: yeast growth competition, sequencing
Matrix: yeast
Setting: weak parent motif
Baseline: not given
Reading: higher = stronger binding
Starting sequence: viral docking peptide; PGASRRLFGSSAD
Variant | normalised enrichment score
D13A | 0.859
S10A | 0.276
S11A | 1.11
F8L | 0.589
R5A | 0.597
G9A | 1.71

Further values, each from its own experiment
Molecule | target | assay | system | conditions | scale | measurement | value
PhoQ, residues 284 288 289 292 302 303 AQGLTV | PhoP, residues 12 14 15 18 19 NNFVT (Escherichia coli, UniProt P23836) | Sort-seq, refers to: YFP reporter | E. coli | PhoQ-PhoP variant library, added: 10 µM Mg2+ | baseline: high Mg2+ state, higher = stronger signaling | fold induction | 6.35

Repeated from above (study 3):
Variant | normalised enrichment score
F8L | 0.589
